Measured values pooled from the literature.
Lines come from different studies, so protocols differ. “And” joins repeats or separate records; there may be more than shown. ± gives the spread as reported.
Nuclear receptor subfamily 2 group C member 2 ligand-binding domain: Nuclear receptor subfamily 2 group C member 2, ligand-binding domain (Homo sapiens, UniProt P49116)
Chain of UniProt P49116 (whole entry, looked up): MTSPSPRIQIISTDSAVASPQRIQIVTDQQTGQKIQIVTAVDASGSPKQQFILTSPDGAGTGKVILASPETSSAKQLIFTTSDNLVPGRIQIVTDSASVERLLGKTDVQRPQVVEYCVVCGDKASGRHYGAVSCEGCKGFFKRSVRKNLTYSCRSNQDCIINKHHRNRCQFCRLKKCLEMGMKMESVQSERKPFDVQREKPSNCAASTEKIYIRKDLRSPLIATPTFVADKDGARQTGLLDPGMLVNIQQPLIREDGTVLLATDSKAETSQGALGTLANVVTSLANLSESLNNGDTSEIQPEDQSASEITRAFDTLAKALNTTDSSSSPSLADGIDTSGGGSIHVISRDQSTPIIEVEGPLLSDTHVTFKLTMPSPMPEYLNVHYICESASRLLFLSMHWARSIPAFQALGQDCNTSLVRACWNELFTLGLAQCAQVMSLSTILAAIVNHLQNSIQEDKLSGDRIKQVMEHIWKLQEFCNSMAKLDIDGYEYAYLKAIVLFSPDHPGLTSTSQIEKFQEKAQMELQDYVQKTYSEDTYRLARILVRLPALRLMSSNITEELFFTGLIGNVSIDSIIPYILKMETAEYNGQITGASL
GUK1: GUK1 (Homo sapiens, UniProt Q16774)
Chain of UniProt Q16774 (whole entry, looked up): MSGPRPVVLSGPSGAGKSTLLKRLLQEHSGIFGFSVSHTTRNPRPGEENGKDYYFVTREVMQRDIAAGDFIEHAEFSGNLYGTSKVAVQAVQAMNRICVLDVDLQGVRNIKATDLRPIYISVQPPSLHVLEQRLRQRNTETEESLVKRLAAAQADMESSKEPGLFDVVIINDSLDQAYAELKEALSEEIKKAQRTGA
YWHAG/RELA phospho-Ser45 p65 peptide: YWHAG/RELA, phospho-Ser45 p65 peptide (Homo sapiens, UniProt P61981+Q04206)
Chain of UniProt Q04206 (whole entry, looked up): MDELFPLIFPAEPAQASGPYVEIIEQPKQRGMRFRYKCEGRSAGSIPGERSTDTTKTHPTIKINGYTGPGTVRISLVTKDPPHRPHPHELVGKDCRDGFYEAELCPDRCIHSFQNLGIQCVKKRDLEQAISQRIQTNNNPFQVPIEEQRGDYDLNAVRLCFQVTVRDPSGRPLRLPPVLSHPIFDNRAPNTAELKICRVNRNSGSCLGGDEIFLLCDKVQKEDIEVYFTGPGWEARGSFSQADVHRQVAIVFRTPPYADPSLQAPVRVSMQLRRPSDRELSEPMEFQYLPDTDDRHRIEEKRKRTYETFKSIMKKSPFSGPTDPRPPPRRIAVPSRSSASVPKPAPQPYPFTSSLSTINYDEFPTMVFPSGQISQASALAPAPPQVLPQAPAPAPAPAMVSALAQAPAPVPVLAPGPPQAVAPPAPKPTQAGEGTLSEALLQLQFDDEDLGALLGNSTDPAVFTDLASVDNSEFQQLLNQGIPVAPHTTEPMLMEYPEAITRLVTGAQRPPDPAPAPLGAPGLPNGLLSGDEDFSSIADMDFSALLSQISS
Chain of UniProt P61981 (whole entry, looked up): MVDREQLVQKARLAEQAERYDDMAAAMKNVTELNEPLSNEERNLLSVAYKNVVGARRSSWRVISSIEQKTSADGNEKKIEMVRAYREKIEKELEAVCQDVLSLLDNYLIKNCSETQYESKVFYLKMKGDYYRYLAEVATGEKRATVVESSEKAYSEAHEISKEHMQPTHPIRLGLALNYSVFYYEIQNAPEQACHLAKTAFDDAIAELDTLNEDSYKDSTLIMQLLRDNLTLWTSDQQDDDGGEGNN
F-box only protein 22 with SKP1: F-box only protein 22, with SKP1 (Homo sapiens, UniProt Q8NEZ5)
Chain of UniProt O76090 (whole entry, unmodified, looked up): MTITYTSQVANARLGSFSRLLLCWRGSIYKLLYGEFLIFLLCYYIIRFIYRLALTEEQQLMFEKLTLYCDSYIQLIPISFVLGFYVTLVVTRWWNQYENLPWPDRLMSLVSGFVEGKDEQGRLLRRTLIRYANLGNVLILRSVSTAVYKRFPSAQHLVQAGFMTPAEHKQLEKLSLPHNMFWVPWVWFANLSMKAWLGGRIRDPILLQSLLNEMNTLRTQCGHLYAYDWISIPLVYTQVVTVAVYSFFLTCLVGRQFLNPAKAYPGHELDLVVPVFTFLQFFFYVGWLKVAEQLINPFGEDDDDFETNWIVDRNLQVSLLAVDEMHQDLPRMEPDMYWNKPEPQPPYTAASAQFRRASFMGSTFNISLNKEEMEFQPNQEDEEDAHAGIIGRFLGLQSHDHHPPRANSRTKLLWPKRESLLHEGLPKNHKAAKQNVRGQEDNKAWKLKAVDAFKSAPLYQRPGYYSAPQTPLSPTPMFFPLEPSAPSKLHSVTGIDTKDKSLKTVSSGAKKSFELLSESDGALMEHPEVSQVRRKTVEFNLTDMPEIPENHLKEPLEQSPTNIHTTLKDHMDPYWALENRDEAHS
Chain of UniProt P27361 (whole entry, looked up): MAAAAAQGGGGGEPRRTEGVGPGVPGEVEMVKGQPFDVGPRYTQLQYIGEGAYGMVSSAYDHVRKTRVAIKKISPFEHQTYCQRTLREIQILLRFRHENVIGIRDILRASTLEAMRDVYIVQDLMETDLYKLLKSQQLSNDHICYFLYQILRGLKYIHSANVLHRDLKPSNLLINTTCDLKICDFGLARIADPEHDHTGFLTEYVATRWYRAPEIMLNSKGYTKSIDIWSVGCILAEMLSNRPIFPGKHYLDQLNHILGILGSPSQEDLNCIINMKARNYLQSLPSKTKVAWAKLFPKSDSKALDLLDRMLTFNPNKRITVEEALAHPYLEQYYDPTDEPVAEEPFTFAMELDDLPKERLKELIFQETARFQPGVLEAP
Chain of UniProt O14980 (whole entry, looked up): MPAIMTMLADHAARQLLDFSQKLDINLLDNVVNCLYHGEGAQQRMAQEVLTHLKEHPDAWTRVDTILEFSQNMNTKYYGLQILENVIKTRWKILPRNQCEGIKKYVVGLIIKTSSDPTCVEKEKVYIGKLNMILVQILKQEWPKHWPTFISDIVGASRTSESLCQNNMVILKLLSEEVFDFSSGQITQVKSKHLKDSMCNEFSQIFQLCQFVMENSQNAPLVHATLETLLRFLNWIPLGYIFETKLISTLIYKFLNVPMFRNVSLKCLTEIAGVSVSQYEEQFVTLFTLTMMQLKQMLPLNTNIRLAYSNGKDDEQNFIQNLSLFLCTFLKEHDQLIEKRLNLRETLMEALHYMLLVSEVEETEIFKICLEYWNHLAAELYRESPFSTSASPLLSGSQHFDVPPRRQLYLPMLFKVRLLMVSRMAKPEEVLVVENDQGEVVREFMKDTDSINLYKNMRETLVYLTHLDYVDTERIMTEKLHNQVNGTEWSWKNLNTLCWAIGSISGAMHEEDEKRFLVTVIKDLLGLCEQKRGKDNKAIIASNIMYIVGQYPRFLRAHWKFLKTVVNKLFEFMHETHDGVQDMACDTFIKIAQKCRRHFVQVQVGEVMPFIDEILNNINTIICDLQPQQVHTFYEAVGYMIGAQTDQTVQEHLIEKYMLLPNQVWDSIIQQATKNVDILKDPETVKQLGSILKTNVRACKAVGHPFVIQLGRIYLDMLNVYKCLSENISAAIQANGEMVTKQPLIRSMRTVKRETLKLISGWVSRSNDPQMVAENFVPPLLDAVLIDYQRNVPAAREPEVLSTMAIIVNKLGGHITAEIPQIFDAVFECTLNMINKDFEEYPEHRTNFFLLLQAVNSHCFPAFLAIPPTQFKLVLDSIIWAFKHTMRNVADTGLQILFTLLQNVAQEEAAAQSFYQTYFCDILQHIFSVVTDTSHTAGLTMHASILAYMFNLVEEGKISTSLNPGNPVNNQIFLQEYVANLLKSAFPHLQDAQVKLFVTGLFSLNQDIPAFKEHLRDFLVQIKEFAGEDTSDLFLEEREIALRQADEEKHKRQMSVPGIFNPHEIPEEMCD
Chain of UniProt Q8NEZ5 (whole entry, looked up): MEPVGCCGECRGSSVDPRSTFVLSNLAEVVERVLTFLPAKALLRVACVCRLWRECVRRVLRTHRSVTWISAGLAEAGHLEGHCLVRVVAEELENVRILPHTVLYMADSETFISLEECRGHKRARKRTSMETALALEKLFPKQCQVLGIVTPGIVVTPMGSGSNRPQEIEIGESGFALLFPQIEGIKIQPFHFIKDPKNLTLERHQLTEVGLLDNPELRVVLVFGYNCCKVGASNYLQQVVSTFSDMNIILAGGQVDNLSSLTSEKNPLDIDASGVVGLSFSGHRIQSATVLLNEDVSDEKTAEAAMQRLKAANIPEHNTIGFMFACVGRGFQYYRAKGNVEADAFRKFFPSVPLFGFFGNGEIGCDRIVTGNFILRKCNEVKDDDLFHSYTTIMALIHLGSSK
Chain of UniProt Q62351 (whole entry, looked up): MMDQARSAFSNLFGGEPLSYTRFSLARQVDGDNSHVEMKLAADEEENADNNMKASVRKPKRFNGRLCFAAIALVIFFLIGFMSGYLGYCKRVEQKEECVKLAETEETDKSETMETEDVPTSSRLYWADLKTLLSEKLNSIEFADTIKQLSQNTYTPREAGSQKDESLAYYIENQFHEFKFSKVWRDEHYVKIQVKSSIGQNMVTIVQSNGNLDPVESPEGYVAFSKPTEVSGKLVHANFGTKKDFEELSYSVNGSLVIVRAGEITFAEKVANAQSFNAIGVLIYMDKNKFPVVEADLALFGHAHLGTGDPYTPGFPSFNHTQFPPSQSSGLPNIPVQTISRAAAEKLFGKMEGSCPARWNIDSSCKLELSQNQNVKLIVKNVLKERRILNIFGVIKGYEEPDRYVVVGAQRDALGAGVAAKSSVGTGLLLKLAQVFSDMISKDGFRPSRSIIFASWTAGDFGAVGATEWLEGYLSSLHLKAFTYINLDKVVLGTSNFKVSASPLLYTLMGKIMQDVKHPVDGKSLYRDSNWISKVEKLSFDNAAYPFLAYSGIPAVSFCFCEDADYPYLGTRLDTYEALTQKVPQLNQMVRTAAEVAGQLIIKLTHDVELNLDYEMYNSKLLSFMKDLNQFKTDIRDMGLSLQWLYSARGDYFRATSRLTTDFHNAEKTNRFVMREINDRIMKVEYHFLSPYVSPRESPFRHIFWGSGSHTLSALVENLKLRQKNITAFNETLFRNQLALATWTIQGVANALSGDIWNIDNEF

Structure (SMILES) | target or system | assay | test system | setting | how to read | measurement | value
O=C1CSC(=S)N1NC(=S)SSC(=S)NN1C(=O)CSC1=S | PTPN22 (Homo sapiens, UniProt Q9Y2R2) | inhibitor, phospho-flow cytometry |  | 50 µM, together with: TCR stimulation | reference: DMSO | positive cells | 20.1%
Cc1cc(-c2ccnc3[nH]cc(F)c23)cc(F)c1[C@@]1(O)[C@H](C)CN(C2CCS(=O)(=O)CC2)C[C@@H]1C | AKT1 and AKT3 | ATP probe binding, KiNativ, refers to: Lys1 site | HEK293T cell lysate | 1 µM |  | inhibition | -3.7%
Nc1ncnc2c1ncn2[C@@H]1O[C@H](COP(=O)(O)OP(=O)(O)OP(=O)(O)O)[C@@H](O)[C@H]1O | Hexokinase-3 (HK3, Homo sapiens, UniProt P52790, R480W) | substrate |  | mutant R480W, together with: glucose 0.5 mM |  | kcat | 47 ± 7 s⁻¹
Nc1ncn([C@@H]2O[C@H](CO)[C@@H](O)[C@H]2O)c(=O)n1 | OCI-Ly1 |  |  | 1 µM, 120 h |  | viability | 135%
NCCCCC(=O)O | SLC6A6 (Homo sapiens, UniProt P31641, G62A) | binding, microscale thermophoresis |  | 244 nM, room temperature, together with: 50 nM labelled protein | higher = more binding | normalised MST signal | 0.0377
O=C(O)c1ccccc1NC1=NS(=O)(=O)c2ccccc21 | PKLR (Homo sapiens, UniProt P30613) | enzyme activity, activator |  | 10 µM |  | activity | inactive
CC[C@H](C)[C@@H]1NC(=O)[C@H]([C@@H](C)CC)NC(=O)[C@@H](Cc2ccc(O)cc2)NC(=O)CSC[C@@H](C(N)=O)NC(=O)[C@H](CCCNC(=N)N)NC(=O)[C@H](CCCCN)NC(=O)[C@H](CC(C)C)NC(=O)[C@H](CO)NC(=O)[C@H](CO)NC(=O)[C@H](CC(C)C)NC(=O)[C@H](Cc2ccccc2)NC(=O)[C@H](C(C)C)NC(=O)CNC(=O)[C@H](CC(C)C)NC(=O)[C@@H]2CCCN2C(=O)[C@H]([C@@H](C)O)NC(=O)[C@H](CC(=O)O)NC1=O | VPS35/VPS29 (Homo sapiens, UniProt Q96QK1+Q9UBQ0) | binding, isothermal titration calorimetry |  | 25 °C |  | ΔH | -10.5 ± 0.4 kcal/mol
COc1ccc2cc(CCC(C)=O)ccc2c1 | Nuclear receptor subfamily 2 group C member 2 ligand-binding domain | SPR imaging |  | 600 nM |  | koff | 9.34e-08 s⁻¹
COc1ccc2c(c1)C(=O)N(CCN1CCN(c3ccccc3OC)CC1)C2 | DRD5 (Homo sapiens, UniProt P21918) | radioligand binding |  | concentration not given, together with: [3H]SCH23390 |  | inhibition | 21.8%
COc1cc2c(NC3CCN(C(C)C)CC3)nc(N3CCC(F)(F)CC3)nc2cc1OCCCN1CCCC1 | OCI-Ly1 |  |  | 1 µM, 120 h |  | viability | 82.5%
Nc1ncnc2c1ncn2[C@@H]1O[C@H](COP(=O)(O)OP(=O)(O)O)[C@@H](O)[C@H]1O | CKMT1A (Homo sapiens, UniProt P12532) | substrate, Kinase-Glo luminescence |  | pH 7.0, reverse reaction, WT mutant, together with: second substrate in excess |  | Km | 16 ± 30 µM
Nc1ccc(C(=O)O)cc1 | BEST1, with wild-type BEST1 (Homo sapiens, UniProt O76090, D302A) | ion current, whole-cell patch clamp | HEK293 co-expressing mutant and wild-type | concentration not given, voltage -80 mV |  | current density | -18.4 pA/pF and -12.7 pA/pF and -6.28 pA/pF and -6.14 pA/pF and -11.6 pA/pF and -14.3 pA/pF
CC(Nc1nc(N2CCCC2)nc2ccccc12)c1ccccc1 (centres unmarked) | Exportin-1 (XPO1, Homo sapiens, UniProt O14980) | nuclear export, high content imaging | HeLa Kyoto reporter | 0.32 µM, 2 h |  | cells with nuclear reporter | 2.61% and 2.93% and 4.65%
CC(C)C[C@@H]1NC(=O)[C@H](C(C)C)NC(=O)CNC(=O)[C@H](CC(N)=O)NC(=O)[C@@H]2CCCN2C(=O)[C@H](Cc2ccc(O)cc2)NC(=O)[C@H](CCCNC(=N)N)NC(=O)[C@H](C)NC(=O)[C@@H](NC(=O)[C@H](CCCCN)NC(=O)[C@@H]2CCCN2C(=O)[C@H](CO)NC(=O)[C@H](C)NC(=O)[C@@H](N)Cc2ccc(O)cc2)CSSC[C@@H](C(=O)N[C@H](C(N)=O)[C@@H](C)O)NC(=O)[C@H](C)NC1=O | Alpha-2-HS-glycoprotein, asialo (AHSG, Bos taurus, UniProt P12763) | binding, isothermal titration calorimetry |  | pH 7.0, 25 °C, together with: asialofetuin |  | -TΔS | 1.12 kcal/mol
O=c1nc(SCc2cc(F)cc(C(F)(F)F)c2)nc(SCc2ccc3nc(Cl)ccc3c2)[nH]1 | TOP2A (Homo sapiens, UniProt P11388) | DNA cleavage |  | 125 µM, together with: etoposide 50 µM |  | linear DNA | 10.1%
O=S(=O)(O)O | GUK1 | enzyme activity, NADH-coupled |  | 1 mM, together with: ATP 31.25 µM |  | reaction velocity | 0.0334 µM/s and 0.0443 µM/s and 0.0286 µM/s

Structure (SMILES) | target or system | assay | test system | setting | how to read | measurement | value
CCOCc1nc(O)c(-c2nnc(Cc3ccc(Cl)cn3)o2)c(O)c1-c1c(OC)cccc1OC | Apelin receptor (APLNR, Homo sapiens, UniProt P35414) | Gα12/P115 activation, agonist, BRET biosensor | HEK293 |  |  | Emax | 92 ± 10%
Nc1ncnc2c1ncn2[C@@H]1O[C@H](COP(=O)(O)OP(=O)(O)O)[C@@H](O)[C@H]1O | GUK1 | binding, isothermal titration calorimetry |  | molar ratio 3.053, fitted curve |  | ΔH | -0.153 kcal/mol
O=Cc1ccc([N+](=O)[O-])c(OC(=O)c2ccccc2Cl)c1 | YWHAG/RELA phospho-Ser45 p65 peptide | ternary complex formation, stabilizer, fluorescence anisotropy |  |  |  | EC50 | > 1000 µM
O=C1OC(c2ccccc2)=N/C1=C\c1ccc(O)c(O)c1 | MAL12 (Saccharomyces cerevisiae S288c, UniProt P53341) | inhibitor, Lineweaver-Burk |  | 3200 ppm, together with: pNPG substrate |  | Vmax | 0.046 mM/min
CC[C@@H](C)[C@@H](NC(=O)[C@@H](Cc1ccc(O)cc1)NC(=O)[C@H]1CCCN1C(=O)[C@@H](CCCNC(=N)N)NC(=O)[C@H](N)Cc1c[nH]cn1)C(=O)N[C@H](C)C(=O)N[C@H](Cc1c[nH]cn1)C(=O)N[C@H](CCCNC(=N)N)C(=O)N[C@@H](C(=O)N[C@H](Cc1ccc(O)cc1)C(=O)N[C@H](CO)C(=O)N[C@H](Cc1ccccc1)C(N)=O)C(C)C | Transferrin receptor protein 1 (Tfrc, Mus musculus, UniProt Q62351) | flow cytometry | MC-38 | 2 h, unit not given | reference: 0 h | surface expression | 0.94 and 0.931
CC(=O)NCCCC[C@H](NC(=O)CNC(=O)CNC(=O)[C@H](CCCCNC(C)=O)NC(=O)CNC(=O)[C@H](CCCNC(=N)N)NC(=O)CNC(=O)[C@@H](N)CO)C(=O)NCC(=O)N[C@@H](CC(C)C)C(=O)NCC(N)=O | BRD1 (Homo sapiens, UniProt O95696, R585F) | binding, ITC |  | 15 °C, together with: peptide 2 mM |  | ΔG | -5.22 kcal/mol
CNCCCC[C@H](NC(=O)[C@@H](NC(=O)[C@H](CCCNC(=N)N)NC(=O)[C@H](C)N)[C@@H](C)O)C(=O)N[C@@H](CCC(N)=O)C(=O)N[C@H](C(=O)N[C@@H](C)C(=O)N[C@@H](CCCNC(=N)N)C(=O)N[C@@H](CCCCN)C(=O)N[C@@H](CO)C(=O)N[C@H](C(=O)NCC(=O)NCC(=O)N[C@@H](CCCCN)C(=O)N[C@@H](C)C(=O)N[C@@H](Cc1ccc(O)cc1)C(=O)O)[C@@H](C)O)[C@@H](C)O | Transcriptional regulator ATRX (ATRX, Homo sapiens, UniProt P46100, F284Y/K251R) | isothermal titration calorimetry |  | concentration not given, pH 7.5, 25.0 °C |  | binding enthalpy | -5.89 kcal/mol
CC[C@H](C)[C@H](NC(=O)[C@H](CCC(=O)O)NC(=O)[C@H](CCC(=O)O)NC(=O)[C@@H]1CCCN1C(=O)[C@H](CC(=O)O)NC(=O)[C@H](C)NC(=O)[C@H](CCC(N)=O)NC(=O)[C@@H](NC(=O)[C@H](C)NC(=O)[C@@H](NC(=O)[C@H](CO)NC(=O)[C@@H](NC(=O)[C@H](CCCCN)NC(=O)[C@@H](N)Cc1ccc(O)cc1)[C@@H](C)O)C(C)C)[C@@H](C)O)C(=O)N[C@H](C(=O)N[C@H](C(=O)N[C@@H](CC(C)C)C(=O)N[C@@H](COP(=O)(O)O)C(=O)N[C@@H](CC(=O)O)C(=O)N[C@@H](COP(=O)(O)O)C(=O)N[C@@H](CC(=O)O)C(=O)O)C(C)C)[C@@H](C)CC | Small ubiquitin-related modifier 1, residues 17-97 (Homo sapiens, UniProt P63165, C52A) | isothermal titration calorimetry |  | concentration not given, pH 7.4, N-terminally truncated SUMO1 |  | enthalpy change (ΔH) | 1.61 ± 0.35 kcal/mol
C[S+](CC[C@H](N)C(=O)O)C[C@H]1O[C@@H](n2cnc3c(N)ncnc32)[C@H](O)[C@@H]1O (some centres unmarked) | O-methyltransferase (Sorghum bicolor, UniProt A0A1B6PFV1) | isothermal titration calorimetry |  | concentration not given, apo protein |  | binding stoichiometry | 1.84 ± 0.118 sites
CC1CCN(c2cc(C=O)ccc2[N+](=O)[O-])CC1 | YWHAG/RELA phospho-Ser45 p65 peptide | ternary complex formation, stabilizer, fluorescence anisotropy |  |  |  | EC50 | > 1000 µM
OCC(CO)N[C@H]1C[C@](O)(CO)[C@@H](O)[C@H](O)[C@H]1O | Nuclear receptor subfamily 2 group C member 2 ligand-binding domain | SPR imaging |  | 600 nM |  | koff | 1.49e-07 s⁻¹
CC[C@@H]1[C@H](F)C(=O)N[C@@H]1COc1nccc2cc(C(N)=O)c(OC)cc12 | RPS6KC1 (Homo sapiens, UniProt Q96S38) | ATP probe binding, KiNativ profiling, refers to: domain 1 ATP site | THP-1 cell lysate | 0.04 mM |  | inhibition | -10.9%
O=C(O)[C@@H]1CCCN1c1ncnc2[nH]cnc12 (racemic) | F-box only protein 22 with SKP1 | binding, affinity selection mass spectrometry |  |  | reference: other proteins in batch | fold enrichment | 0.87
CCOCC(O)COc1ccc(NC(=O)CC[S+](C)C)cc1 (centres unmarked) | Nuclear receptor subfamily 2 group C member 2 ligand-binding domain | SPR imaging |  | 600 nM |  | koff | 3.75e-07 s⁻¹
Nc1[nH]nc2nnc(-c3c(-c4ccccc4)nn4ccccc34)cc12 | MAPK3 (Homo sapiens, UniProt P27361) | ADP-Glo |  | 29 nM, together with: MBP substrate |  | kinase activity | 83.2% and 62.2% and 115%
CC1CCCN(C(=O)c2cc3ncccn3n2)C1 (centres unmarked) | F-box only protein 22 with SKP1 | binding, affinity selection mass spectrometry |  |  | reference: other proteins in batch | fold enrichment | 0.815
